Experimental data of several laboratories.
Parts stem from different laboratories: compare values within a part only.

Block 1 — method: protein-binding microarray; molecule type: double-stranded DNA, one strand shown; sample: in vitro; tested at: not given; reading: higher = stronger binding; endpoint: E-score
Target: Max dimerization protein 1, bHLH-zipper, MAX partner unstated (MXD1, Homo sapiens, UniProt Q05195, residues 56-136)
Notes: k-mer, scored over probes, only values ≥0.25
Construct (chain): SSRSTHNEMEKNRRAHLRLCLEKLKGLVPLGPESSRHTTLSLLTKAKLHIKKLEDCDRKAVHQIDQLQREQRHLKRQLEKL
ATGCCCCC: 0.307
CGCCCACC: 0.257
AAGCACGA: 0.305
CCCATCCC: 0.266
TCACCCCA: 0.284
CGTGAATA: 0.258
ACATGAGA: 0.345
ACCACGCC: 0.362
CATGCGTA: 0.408
CATGTGAC: 0.447
CATGTGGC: 0.456
CATGGTAG: 0.333
CGTGCATA: 0.329
CCATGCAG: 0.317
CGCATGGA: 0.349
ATGTGTCG: 0.322
GCATGCGC: 0.401
GCATGCCC: 0.404
ACGTGGGG: 0.366
AAAACCAC: 0.282
GCGTGACA: 0.31
GAGCATGC: 0.392
ACGACACG: 0.327

Block 2 — method: protein binding microarray; molecule type: double-stranded DNA, one strand shown; sample: in vitro; tested at: not given; baseline: not given; reading: higher = stronger binding; endpoint: E-score
Target: Histone acetyltransferase KAT6A, winged helix 1, GST fusion (KAT6A, Homo sapiens, UniProt Q92794, residues 1-85)
Notes: 8-mer, flanks averaged, mean of 2 arrays, mostly near background
Construct (chain): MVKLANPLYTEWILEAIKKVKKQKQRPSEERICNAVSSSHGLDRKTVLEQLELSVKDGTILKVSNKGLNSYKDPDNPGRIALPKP
GAGGTCGA: -0.134
CCGAACGG: 0.299
GCACGCGA: 0.19
ATCATTTG: -0.185
AGGTGGGC: -0.16
TAATACGA: -0.189
CTCCCGTA: 0.267
AAATCTCA: -0.204
GACTCTGA: -0.129
CATCGCGA: 0.246
CGCCGAGC: 0.333
ACGATCGG: 0.147
CCTTCTTC: -0.0833
TAGCAGCA: -0.26
GCATGTAC: -0.0385
GAGCAACA: -0.139
CGTTCGTA: 0.107

Block 3 — method: protein-binding microarray; molecule type: double-stranded DNA, one strand shown; sample: in vitro; tested at: 940 nM top; notes: 60-bp whole probe; added: salmon DNA 0.4 mg/ml; baseline: random background probes; reading: higher = stronger binding; endpoint: fitted relative affinity; shared flanks, not repeated: GCCTAGCAC … GTCTTGATTCGCTTGACGCTGCTG
Target: Interferon regulatory factor 5, full length, phosphomimetic (IRF5, Homo sapiens, UniProt Q13568-2, residues 1-514, S451D/S453D/S456D/S462D)
GACGATATCTGGTATCGAGACGTGCTA: 1.92 z-score
TACGGTATCGGGTTTCGGGACGTGCTA: 5.24 z-score
TCAGTTTTTCATTTTTTACTGTGCTAG: 1.31 z-score
TTACATTCCCCATTGTGTTGGTGCTAG: 0.591 z-score
TTGGGTCTCCTTCTCCTTTAGTGCTAG: 0.57 z-score
GACGGACTGGGGACTCGGGACGTGCTA: -0.274 z-score
TGAAAATTAGTGTTTGCCCTAGTGCTA: -0.367 z-score
TTAGAACTGGCGTTTCGATTAGTGCTA: 1.14 z-score
TTAGGTATCGGGAATCGGTTAGTGCTA: 3.99 z-score
TTAGGACTGTGGTTTCGGTTAGTGCTA: 6.64 z-score
TAAGGTTTCGGTCTCGGTTAGTGCTAG: 12.3 z-score
GACGGTTTCCTTTTCCAGACGTGCTAG: 2.37 z-score
GACGATCTCAGTTTCGGGACGTGCTAG: 3.93 z-score
TCAGGTCTCCCTTGAGGACTGTGCTAG: -0.0748 z-score
GACGGACTGCGTTTCCTGACGTGCTAG: -0.478 z-score
TCAATTTTCATTATTGCACTGTGCTAG: 1.13 z-score
TGGTTTTCCTTATTGCTTCCTGTGCTA: 2.17 z-score
GTCGGTTTCGGGTTTCGGGACGTGCTA: 11.1 z-score
TTAGATATCGGGTTTCGGTTAGTGCTA: 6.13 z-score

Block 4 — method: RNA Bind-n-Seq; molecule type: RNA; sample: in vitro; tested at: 200 nM; notes: whole 134-nt RNA, ends assumed; added: 150 mM KCl; baseline: input library; reading: higher = stronger binding; endpoint: log2 enrichment
Target: Fragile X messenger ribonucleoprotein 1, C-terminal low-complexity region (Fmr1, Mus musculus, UniProt P35922)
Shared flanks, not repeated: GGGAGUUCUACAGUCCGACGAUC … UGGAAUUCUCGGGUGUCAAGG
UAACUUUAGAGGAGGAUCUGAUGGAUAUGGCAGUGGACGUGGAUUUGGUGAUGGCUAUAAUGGGUAUGGAGGAGGACCUGGAGGUGGCAA: 0.224
CAACGUUGAAAUGGAUUGGGUGUUGAAGCAUACUGGUCCAAAUAGUCCUGACACGGCCAAUGAUGGCUUUGUACGGCUUAGAGGACUUCC: -1.73
CAGAGACAACACGCACCCACACAGACACAGAGGGAAGGGGUUGGGAUGGGGACAGGGUGCACAGCAGGGCGGGGUAGGACCCCAGCCCCU: 1.22
UCCUGUGCUACACAUCGUAUGUACCGAAUCGGGUUUUUUUGGGUUUUUUUGGGUUUGGGAAAGUAUUAUGUUACGCCGUUCGGAUCUGCA: 0.241
GCAGGAAGUAAAAACAAAUGGAAAUAAAUCGGAUAGUGGCAGGGGUGGGGGUUGCUAAGGAAAGGGUGGGAUGGGAGUGGGUAAAGAGUU: 0.241
GUCCUGUGCUACACAUCGUAUGUACCGAAUCGGGGAAAAAGGGGUUUUUGGGGUGGGGAAAGUAUUAUGUUACGCCGUUCGGAUCUGCAC: 0.567
UUAUGGAGUUUGGCCCUGAGGACAUGCUGCUGGGCAUGGAUGAGGCUGAAGAUGAUGAGGACCUGGAGGCUGAGCUGCUGGCUCUCACAG: -0.837
UGCUUCAGACCAAGCGGAGCUCCCGGAGGCAAAGCCUGGAGCUGCAGAAGUGUGAAGAGAUCCUCCACAAGAUCGUGAAGUACCGCUUCA: -2.41
UGGCCCUGGUGGCAUGCGGGGAGGAAGAGGUGGCCUCAUGGAUCGUGGUGGUCCCGGUGGAAUGUCCAGAGGUGGCCGUGGUGGAGACAG: -0.179
GUCCUGUGCUACACAUCGUAUGUACCGAAUCGGGAAAAAGGGUUUUUUUGGGAAAGGGAAAGUAUUAUGUUACGCCGUUCGGAUCUGCAC: -0.421
UGUGCUACACAUCGUAUGUACCGAAUCGGAAAAAAAGGGGAAAAAAAGGGGAAAAAAAGGGGAAAGUAUUAUGUUACGCCGUUCGGAUCU: -0.166
ACCAUGCAGGUGGGCGUCUUUGGGAAGUGGGGCAAGGGGGGGAUAGGGAGGGGGGUAACACUUUGGGAACAGGUGGUCCCAGGUCGUUUC: 0.607
UGUCUGCGGACCUGGUUUCAGCGCUGGUGGGACUGCAGCCGGAGGUCAGCCCAGCAGAGACUGCAGCUGGAGAGGGCAGUGCAACACCAC: -0.991
UGUGUGCAUUCCCUGCGCCAAGGGCUUCCCCAGCUCUGAGCAGCUCAAUGCGCACGUGGAGACUCACACGGAGGAAGAGCUGUUCAUCAA: -1.4

Block 5 — method: EMSA with sequencing; molecule type: double-stranded DNA, one strand shown; sample: in vitro; tested at: 10 and 20 nM; baseline: negative control set to 0; reading: higher = stronger binding; endpoint: normalised bound fraction
Target: Hepatocyte nuclear factor 3-alpha (Foxa1, Mus musculus, UniProt P35582, residues 1-468, full length assumed)
Chain of UniProt P35582 (whole entry, looked up): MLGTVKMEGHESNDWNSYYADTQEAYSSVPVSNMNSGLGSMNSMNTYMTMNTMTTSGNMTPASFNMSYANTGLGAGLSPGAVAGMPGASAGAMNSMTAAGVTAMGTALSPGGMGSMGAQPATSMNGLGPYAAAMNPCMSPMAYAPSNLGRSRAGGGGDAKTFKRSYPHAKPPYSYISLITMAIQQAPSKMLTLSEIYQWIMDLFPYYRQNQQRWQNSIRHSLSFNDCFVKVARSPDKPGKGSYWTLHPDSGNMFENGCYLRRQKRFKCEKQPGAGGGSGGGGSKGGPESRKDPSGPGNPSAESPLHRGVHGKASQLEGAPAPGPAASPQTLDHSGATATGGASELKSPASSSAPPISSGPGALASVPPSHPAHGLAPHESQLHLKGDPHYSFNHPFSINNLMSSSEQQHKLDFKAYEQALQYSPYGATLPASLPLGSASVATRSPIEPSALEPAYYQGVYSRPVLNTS
Notes: whole designed probe, mean of two concentrations, ends assumed
Shared flanks, not repeated: GTGAGCGGTGCCCATTGATGGGGAAC … TTTCACTGGGATCGTGGGGAC
GGCTAAAATGACTATCAATGGCCCTGGGCTGGCCCACACCTAAAGACTGTAAAACAGGAGAGCAAACAATTGACTTCTCCCTGACTTGCTAAGTCAACAAACCACATGAGTCAGCAAACCTCTTTTTACTGCCTGACCTTCCTTAACATCTCCTTATCGTATTCTGAAATTCCTATTCTGCTGGCTGGAATCT: 0.473 ratio
ATCTTCCCCCTCTTCCTTGCCCCACCAGCTCACCTTCCCGGGTTATTTGCAGATAGGAAAATAAATAAAGCCGGCATTCGTTAACCCTCTTCTGGCGCAAACTGCACATTGGTCTGGATGAATCATGGTCCTTTGGCGACGCCAGGCTCCGGGAGAGCAAAGCACCGTGTCAGGGCCATGATCCGGGGTGGCC: 0.326 ratio
GGCTCCAAACGGCTGAATCAGCATTTTCAGAAACAAAGTGTTCTAGGCCTGGCCTTTTAGTTGTGCAATAACAGCAGCAACGAGCAAAACGCATATTTACTCACGAGCTCTCCTTGTTTTGGTCTTTCCCCCCTCCCCCCCATCTCTTGAATGAAACTGGGCACCAAGTTTGCAAGAAAATATTCTTTCAAAC: 0.117 ratio
TCTTTCACTCAAGTGGTATATCCCACAGCCCTAAAGAAGCAAGGGAAATAAGAATTAGAACTAGACATCCCAGGAGACAAAGAATTCAACAAAGCAAACATTAACCAATCCCTTCACACTTCCTGCCTATTTACAGAAAATCTCTCTGGCTCAGGCCGGGCAGTGAGTTCATTTATTTCAACAAAATCAAAGA: 0.364 ratio
GCTCAAGGAGATATCCCTAAACTGAGGATGGCTTGAAAAATCACAACTTTACATAAAATTTTAAATCATCCACACAAATGAGATCATATTGCTGTTTACATTGTCAGGTGTCTTAACTCATGTCACCGATAAGTAGAAAATGGGTATAAGTGCTGGCACTGACTAAGTCAATAAAAATGAACTTATGTGAATT: 0.438 ratio
AATTTAGCCTAAGTCTGCCTCCTTACATATTAATATTTTAAGTTTGGCCTAAAGGTTTCCCCTTACAAAGTAAACTGCAGCCTAACTAGCTGTGTAATCTCACTATTCTTAACACCAATCACAGATTTTCAGCAAGTCACAGGAAGTCAGCTGTTAACAAACTTTAAATAAAGCAATCTCCAAGCTGTAAGCA: 0.0395 ratio
CATTTGCCTCACACAGAGTTACAAAAGTTACACCCTGTTTTCAGAAAAACTTTCCCAATACAGGCAGAGAGTTCATGTTTATTTCATAAACCTTGTTTGCTTACATGTTCCAACCATTTTACAAATACTAACTCATTAAATCCTCATAACAACTCAATGGGGTAGGTTGTATTATTACCTTCATTTTACAGGT: 0.248 ratio
ATCTTCCCCCTCTTCCTTGCCCCACCAGCTCACCTTCCCGGGTATATTGGAGATAGTATTTATTTTCAAGCCGGCATTCGTTAACCCTCTTCTGGCGCAAACTGCTGTTTGCTCTGGATGAATCATGGTCCTTTGGCGACGCCAGGCTCCGGGAGAGCAAAGCACCGTGTCAGGGCCATGATCCGGGGTGGCC: 0.184 ratio

Block 6 — method: universal PBM; molecule type: double-stranded DNA, one strand shown; sample: in vitro; tested at: not given; reading: higher = stronger binding; endpoint: E-score
Target: Sal-like protein 4, full length isoform B (SALL4, Homo sapiens, UniProt Q9UJQ4-2, residues 1-616)
Notes: 8-mer, flanks averaged, mean of replicates
CCCACAAG: -0.213
AACAGCTG: 0.0453
ATCTGCTC: 0.0279
ATACTTTA: 0.353
GTTCAAGA: 0.0457
AAACCGTA: 0.0396
CTTTATGA: 0.335
AGACCAAC: -0.146
CGTCCCAG: -0.197
TCGTCACA: 0.0415
CGGCAAGC: -0.203
AGTGCGTA: 0.0137
GGTTCCAC: -0.145
CTCTCTGC: -0.249
AGTTAACC: -0.0721
ACGGTAGG: -0.175
CGCGTCCA: -0.138
CACCGCCA: -0.198
CTTTAAAC: 0.0737
ATAAACTG: 0.19
CTACGGCA: -0.0917
GGGGTGAA: -0.0846
TCACTGCA: 0.17
AGCCACAA: 0.0856
CCGCCTAC: -0.0534

Repeated from above (block 3):
GACGATCTCAGTTTCGGGACGTGCTAG: 3.93 z-score
TGGTTTTCCTTATTGCTTCCTGTGCTA: 2.17 z-score
TGAAAATTAGTGTTTGCCCTAGTGCTA: -0.367 z-score
TCAATTTTCATTATTGCACTGTGCTAG: 1.13 z-score
GACGGACTGGGGACTCGGGACGTGCTA: -0.274 z-score
TTAGATATCGGGTTTCGGTTAGTGCTA: 6.13 z-score
TACGGTATCGGGTTTCGGGACGTGCTA: 5.24 z-score
GACGATATCTGGTATCGAGACGTGCTA: 1.92 z-score
GACGGACTGCGTTTCCTGACGTGCTAG: -0.478 z-score
TTAGGACTGTGGTTTCGGTTAGTGCTA: 6.64 z-score
TTAGGTATCGGGAATCGGTTAGTGCTA: 3.99 z-score
